Published values pooled from the literature.
Lines come from different studies, so protocols differ.
Medium: Caco-2

Cn1nc2c(=O)n(C3CC3)ncc2c1[C@](O)(c1cnc(C(F)(F)F)c(Cl)c1)C(F)(F)F  Papp B→A: 70.5 ×10⁻⁶ cm/s
C[C@H]1O[C@@H](O[C@H]2[C@@H](O)C[C@H](O[C@H]3[C@@H](O)C[C@H](O[C@H]4CC[C@@]5(C)[C@H](CC[C@@H]6[C@@H]5C[C@@H](O)[C@]5(C)[C@@H](C7=CC(=O)OC7)CC[C@]65O)C4)O[C@@H]3C)O[C@@H]2C)C[C@H](O)[C@@H]1O  Papp B→A (5 µM, 2 h): 13.7 ×10⁻⁶ cm/s
Cc1nn(C2CC2)c(=O)c2nn(C)c(Cc3ccc(C(F)(F)F)c(C#N)c3)c12  Papp A→B: 43.4 ×10⁻⁶ cm/s
Cc1cc(C)c(CNC(=O)c2cc(Cl)c3c(c2C)O[C@@](C)([C@H]2CC[C@H](N(C)C)CC2)O3)c(=O)[nH]1  Papp B→A (20 µM): 19.7 ×10⁻⁶ cm/s
C[C@H]1O[C@@H](O[C@H]2[C@@H](O)C[C@H](O[C@H]3[C@@H](O)C[C@H](O[C@H]4CC[C@@]5(C)[C@H](CC[C@@H]6[C@@H]5C[C@@H](O)[C@]5(C)[C@@H](C7=CC(=O)OC7)CC[C@]65O)C4)O[C@@H]3C)O[C@@H]2C)C[C@H](O)[C@@H]1O  Papp B→A (5 µM, 1 h): 8.3 ×10⁻⁶ cm/s
CC(C)NCC(O)COc1cccc2ccccc12 (centres unmarked)  Papp: 43 ×10⁻⁶ cm/s
CC(C)NCC(O)COc1cccc2ccccc12 (centres unmarked)  Papp A→B (10 µM, 2 h, pH 7.4): 21.2 ×10⁻⁶ cm/s
O=c1cc(-c2ccc(O)c(O)c2)oc2cc(O)cc(O)c12  Papp B→A (100 µg/mL, 2 h): 4.22 ×10⁻⁶ cm/s
CC(C)NCC(O)COc1cccc2ccccc12 (centres unmarked)  Papp B→A (5 µM, 2 h): 13.2 ×10⁻⁶ cm/s
Cn1nc2c(=O)n(C3CC3)cnc2c1[C@](O)(c1cnc(C(F)(F)F)c(Cl)c1)C(F)(F)F  Papp A→B: 61.9 ×10⁻⁶ cm/s
O=C(O)[C@H]1O[C@@H](Oc2cc3oc(-c4ccccc4)cc(=O)c3c(O)c2O)[C@H](O)[C@@H](O)[C@@H]1O  Papp B→A (100 µg/mL, 2 h): 3.24 ×10⁻⁶ cm/s

Some of these lines once more:
CC(C)NCC(O)COc1cccc2ccccc12 (centres unmarked)  Papp: 43 ×10⁻⁶ cm/s
